Measurements gathered from unrelated publications.
A part holds a random share of what one study measured.
Sequence of UniProt Q12851 (whole entry, looked up): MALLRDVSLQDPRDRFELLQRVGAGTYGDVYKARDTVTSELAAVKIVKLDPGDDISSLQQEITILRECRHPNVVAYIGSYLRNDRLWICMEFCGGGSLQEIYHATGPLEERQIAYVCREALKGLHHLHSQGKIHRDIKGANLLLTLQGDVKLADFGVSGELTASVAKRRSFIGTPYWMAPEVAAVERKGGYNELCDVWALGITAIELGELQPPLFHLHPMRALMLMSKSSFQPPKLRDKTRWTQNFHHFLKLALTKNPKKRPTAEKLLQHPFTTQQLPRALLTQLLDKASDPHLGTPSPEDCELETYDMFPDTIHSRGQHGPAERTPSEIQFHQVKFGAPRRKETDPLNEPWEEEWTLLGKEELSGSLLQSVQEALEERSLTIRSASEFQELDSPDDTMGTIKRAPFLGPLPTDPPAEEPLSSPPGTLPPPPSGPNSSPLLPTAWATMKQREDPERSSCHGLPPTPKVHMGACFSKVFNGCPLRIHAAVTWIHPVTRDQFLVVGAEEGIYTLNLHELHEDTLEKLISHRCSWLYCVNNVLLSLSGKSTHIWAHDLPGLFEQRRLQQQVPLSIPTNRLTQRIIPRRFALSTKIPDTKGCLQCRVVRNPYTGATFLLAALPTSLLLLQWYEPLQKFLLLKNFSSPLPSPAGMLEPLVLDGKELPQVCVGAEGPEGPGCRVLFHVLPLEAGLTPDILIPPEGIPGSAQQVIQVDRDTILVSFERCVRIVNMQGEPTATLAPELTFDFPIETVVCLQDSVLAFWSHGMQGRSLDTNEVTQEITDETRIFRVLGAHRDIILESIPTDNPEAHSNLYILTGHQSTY
Sequence of UniProt P00519 (whole entry, unmodified, looked up): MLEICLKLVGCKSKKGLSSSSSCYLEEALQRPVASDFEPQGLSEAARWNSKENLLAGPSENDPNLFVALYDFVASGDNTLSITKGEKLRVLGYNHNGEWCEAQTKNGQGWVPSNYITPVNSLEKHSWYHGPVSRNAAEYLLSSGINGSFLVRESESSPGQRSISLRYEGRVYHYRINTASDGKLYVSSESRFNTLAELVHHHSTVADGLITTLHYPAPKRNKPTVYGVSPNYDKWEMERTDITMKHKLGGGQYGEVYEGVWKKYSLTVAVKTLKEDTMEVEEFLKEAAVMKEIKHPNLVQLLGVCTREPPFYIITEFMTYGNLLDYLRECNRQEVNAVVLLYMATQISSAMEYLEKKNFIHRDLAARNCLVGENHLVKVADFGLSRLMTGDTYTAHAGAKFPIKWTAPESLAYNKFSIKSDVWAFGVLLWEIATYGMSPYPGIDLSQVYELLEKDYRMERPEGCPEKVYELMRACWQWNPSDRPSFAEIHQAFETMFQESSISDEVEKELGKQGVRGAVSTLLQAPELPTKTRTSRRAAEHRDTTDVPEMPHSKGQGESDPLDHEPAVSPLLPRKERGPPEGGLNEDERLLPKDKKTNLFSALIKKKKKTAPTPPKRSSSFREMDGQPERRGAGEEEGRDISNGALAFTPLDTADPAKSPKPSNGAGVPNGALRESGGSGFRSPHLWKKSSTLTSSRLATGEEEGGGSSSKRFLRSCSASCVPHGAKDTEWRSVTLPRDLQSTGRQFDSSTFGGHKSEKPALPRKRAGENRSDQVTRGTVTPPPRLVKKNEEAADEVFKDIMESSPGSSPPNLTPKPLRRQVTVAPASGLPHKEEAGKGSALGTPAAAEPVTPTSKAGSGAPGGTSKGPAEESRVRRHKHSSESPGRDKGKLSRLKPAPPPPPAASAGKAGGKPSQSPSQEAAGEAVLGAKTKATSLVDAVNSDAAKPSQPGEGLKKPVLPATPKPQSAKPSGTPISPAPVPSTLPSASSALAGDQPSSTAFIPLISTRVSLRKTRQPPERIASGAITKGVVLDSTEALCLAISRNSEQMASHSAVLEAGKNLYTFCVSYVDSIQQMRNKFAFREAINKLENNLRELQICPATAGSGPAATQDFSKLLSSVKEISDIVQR
Sequence of UniProt P07948 (whole entry, looked up): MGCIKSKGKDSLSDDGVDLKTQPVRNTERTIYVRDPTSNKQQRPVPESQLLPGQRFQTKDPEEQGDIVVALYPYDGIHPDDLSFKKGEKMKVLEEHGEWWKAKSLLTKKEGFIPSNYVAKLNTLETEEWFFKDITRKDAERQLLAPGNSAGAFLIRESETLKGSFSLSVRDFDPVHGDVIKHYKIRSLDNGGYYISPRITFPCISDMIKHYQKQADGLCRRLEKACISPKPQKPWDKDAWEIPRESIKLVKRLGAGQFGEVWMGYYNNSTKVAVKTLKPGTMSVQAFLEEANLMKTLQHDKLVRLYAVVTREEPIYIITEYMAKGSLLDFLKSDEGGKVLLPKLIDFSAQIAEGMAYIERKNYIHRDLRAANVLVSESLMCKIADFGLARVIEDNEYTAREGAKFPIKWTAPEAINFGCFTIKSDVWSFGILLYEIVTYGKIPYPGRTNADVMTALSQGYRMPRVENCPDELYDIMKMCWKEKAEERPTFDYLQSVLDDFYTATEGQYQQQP
Sequence of UniProt P19784 (whole entry, looked up): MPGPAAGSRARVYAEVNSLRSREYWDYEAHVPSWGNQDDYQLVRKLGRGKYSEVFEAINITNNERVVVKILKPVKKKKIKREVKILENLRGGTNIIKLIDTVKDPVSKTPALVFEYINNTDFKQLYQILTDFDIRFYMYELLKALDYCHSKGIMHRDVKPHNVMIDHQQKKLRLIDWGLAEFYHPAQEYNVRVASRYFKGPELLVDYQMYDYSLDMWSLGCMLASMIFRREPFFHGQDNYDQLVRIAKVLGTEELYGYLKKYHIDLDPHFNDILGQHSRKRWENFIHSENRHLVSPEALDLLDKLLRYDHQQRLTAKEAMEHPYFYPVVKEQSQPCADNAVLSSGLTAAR
Sequence of UniProt Q13873 (whole entry, looked up): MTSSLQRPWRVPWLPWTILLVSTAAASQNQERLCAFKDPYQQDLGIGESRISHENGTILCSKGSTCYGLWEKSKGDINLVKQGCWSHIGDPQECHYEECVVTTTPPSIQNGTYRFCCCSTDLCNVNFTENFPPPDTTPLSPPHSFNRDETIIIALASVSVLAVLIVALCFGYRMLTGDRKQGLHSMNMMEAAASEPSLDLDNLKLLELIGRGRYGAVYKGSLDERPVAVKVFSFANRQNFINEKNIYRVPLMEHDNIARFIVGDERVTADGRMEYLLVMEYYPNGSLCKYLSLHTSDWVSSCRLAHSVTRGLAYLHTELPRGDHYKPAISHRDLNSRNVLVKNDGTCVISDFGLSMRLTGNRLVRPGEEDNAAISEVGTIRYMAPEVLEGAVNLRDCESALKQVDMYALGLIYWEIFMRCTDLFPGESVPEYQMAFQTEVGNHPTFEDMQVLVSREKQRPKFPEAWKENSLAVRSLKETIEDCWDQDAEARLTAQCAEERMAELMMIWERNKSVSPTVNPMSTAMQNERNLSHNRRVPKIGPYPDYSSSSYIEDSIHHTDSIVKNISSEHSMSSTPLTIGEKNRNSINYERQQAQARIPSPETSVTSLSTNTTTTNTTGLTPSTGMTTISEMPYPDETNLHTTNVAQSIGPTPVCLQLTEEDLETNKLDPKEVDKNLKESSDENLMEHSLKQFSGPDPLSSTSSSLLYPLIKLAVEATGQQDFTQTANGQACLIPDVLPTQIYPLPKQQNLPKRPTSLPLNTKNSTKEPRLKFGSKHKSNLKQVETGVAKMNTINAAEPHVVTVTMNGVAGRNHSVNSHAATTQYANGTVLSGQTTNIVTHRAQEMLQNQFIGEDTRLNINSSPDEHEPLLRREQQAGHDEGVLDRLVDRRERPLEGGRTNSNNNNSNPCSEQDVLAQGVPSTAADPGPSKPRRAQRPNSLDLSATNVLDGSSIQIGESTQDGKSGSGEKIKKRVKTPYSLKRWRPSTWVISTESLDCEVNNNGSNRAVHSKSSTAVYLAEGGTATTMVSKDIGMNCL
Sequence of UniProt Q52WX2 (whole entry, looked up): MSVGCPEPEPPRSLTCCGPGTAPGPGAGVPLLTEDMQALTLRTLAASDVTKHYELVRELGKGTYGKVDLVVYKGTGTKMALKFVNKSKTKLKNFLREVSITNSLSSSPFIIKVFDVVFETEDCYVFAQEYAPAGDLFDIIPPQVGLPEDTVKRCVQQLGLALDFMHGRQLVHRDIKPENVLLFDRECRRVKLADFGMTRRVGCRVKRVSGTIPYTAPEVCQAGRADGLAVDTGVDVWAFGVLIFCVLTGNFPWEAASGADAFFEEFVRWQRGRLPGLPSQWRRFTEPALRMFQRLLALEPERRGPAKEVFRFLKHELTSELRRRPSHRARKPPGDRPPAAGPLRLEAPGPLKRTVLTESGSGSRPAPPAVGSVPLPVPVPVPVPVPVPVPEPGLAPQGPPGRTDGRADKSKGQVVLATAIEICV

Sample 1 — read-out: enzyme activity; action: inhibitor; tested at: 10 µM
Target: Calcium/calmodulin-dependent protein kinase type II subunit alpha (CAMK2A, Homo sapiens, UniProt Q9UQM7)
Sequence of UniProt Q9UQM7 (whole entry, looked up): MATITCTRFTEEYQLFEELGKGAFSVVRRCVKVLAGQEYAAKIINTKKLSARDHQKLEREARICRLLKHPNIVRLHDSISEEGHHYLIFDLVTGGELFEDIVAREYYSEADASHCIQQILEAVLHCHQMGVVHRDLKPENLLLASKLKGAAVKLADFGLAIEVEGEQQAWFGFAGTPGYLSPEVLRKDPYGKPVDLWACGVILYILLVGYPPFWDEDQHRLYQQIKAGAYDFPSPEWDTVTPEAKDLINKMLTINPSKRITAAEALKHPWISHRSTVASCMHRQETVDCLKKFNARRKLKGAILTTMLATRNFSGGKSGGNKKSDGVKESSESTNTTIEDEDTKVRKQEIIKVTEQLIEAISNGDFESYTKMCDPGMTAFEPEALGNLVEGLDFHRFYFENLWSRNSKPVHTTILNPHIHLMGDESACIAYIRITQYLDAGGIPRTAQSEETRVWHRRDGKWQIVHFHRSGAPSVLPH
`COc1cc([C@@H]2c3cc4c(cc3[C@@H](O[C@@H]3O[C@@H]5CO[C@@H](C)O[C@H]5[C@H](O)[C@H]3O)[C@H]3COC(=O)[C@H]23)OCO4)cc(OC)c1OP(=O)(O)O` has an inhibition of -8%.
`COc1ccccc1OCC(O)CO` (stereo not drawn) has an inhibition of 0%.
With `[2H]C([2H])([2H])NC(=O)c1nnc(NC(=O)C2CC2)cc1Nc1cccc(-c2ncn(C)n2)c1OC` the inhibition was 3%.
For `CC(C)(CO)[C@@H](O)C(=O)NCCCO`, the inhibition was 13%.
For `CC/C=C\C/C=C\C/C=C\CCCCCCCC(=O)OCC`, the inhibition was -26%.
For `NCCCCC(N)C(=O)O` (racemic), the inhibition was 24%.
The inhibition of `CSCC[C@H](NC(=O)[C@H](CC(C)C)NC(=O)CNC(=O)[C@H](Cc1ccccc1)NC(=O)[C@H](Cc1ccccc1)NC(=O)[C@H](CCC(N)=O)NC(=O)[C@H](CCC(N)=O)NC(=O)[C@@H]1CCCN1C(=O)[C@H](CCCCN)NC(=O)[C@@H]1CCCN1C(=O)[C@@H](N)CCCN=C(N)N)C(N)=O` is reported as -43%.
With `C=C(CC(=O)O)C(=O)O` the inhibition was -22%.
`C[C@@H]1CC[C@]2(C(=O)O[C@@H]3O[C@H](CO)[C@@H](O)[C@H](O)[C@H]3O)CC[C@]3(C)C(=CC[C@@H]4[C@@]5(C)CC[C@H](O[C@@H]6OC[C@H](O)[C@H](O)[C@H]6O)C(C)(C)[C@@H]5CC[C@]43C)[C@@H]2[C@]1(C)O` gave an inhibition of 0%.
`O=C(Cn1ccnc1[N+](=O)[O-])NCc1ccccc1` has an inhibition of -15%.
The inhibition of `CN(C)CCN(Cc1ccccc1)c1ccccn1` is reported as -9%.
For `COc1cc2oc(-c3ccc(O)c(O)c3)c(OC)c(=O)c2c(O)c1OC`, the inhibition was 2%.
For `CN(C)CCOC(=O)C(c1ccccc1)C1(O)CCCC1` (stereo not drawn), the inhibition was 5%.
`CCc1nn(CCCN2CCN(c3cccc(Cl)c3)CC2)c(=O)n1CCOc1ccccc1` has an inhibition of -7%.
`CC(C)=CCC[C@](C)(O)[C@@H]1CC=C(C)CC1` gave an inhibition of 11%.
`C[N+]1(C)CCC(OC(=O)C(O)(c2ccccc2)C2CCCC2)C1` (stereo not drawn) gave an inhibition of 2%.
`CCCCCCCCCCCCCCCC(=O)NCCO` has an inhibition of -10%.
`C[S+]([O-])CC[C@H](N)C(=O)O` (stereo partly drawn) has an inhibition of 0.16%.
For `CCOC(=O)[C@H](CCc1ccccc1)N[C@@H](C)C(=O)N1[C@H](C(=O)O)C[C@@H]2CCC[C@@H]21`, the inhibition was 2%.

Sample 2 — read-out: enzyme activity; action: inhibitor; tested at: 0.5 µM; relative to: control
SMILES: COc1cc2ncnc(Nc3ccc(OCc4ccccc4)cc3)c2cc1OC
Serine/threonine-protein kinase Chk1 (CHEK1, Homo sapiens, UniProt O14757) — remaining activity: 101%.
Mast/stem cell growth factor receptor Kit (KIT, Homo sapiens, UniProt P10721) — remaining activity: 63%.
For Mitogen-activated protein kinase 12 (MAPK12, Homo sapiens, UniProt P53778): remaining activity read 102%.
Dual specificity mitogen-activated protein kinase kinase 6 (MAP2K6, Homo sapiens, UniProt P52564) — remaining activity: 109%.
Mitogen-activated protein kinase kinase kinase 10 (MAP3K10, Homo sapiens, UniProt Q02779) — remaining activity: 94.9%.
For Tyrosine-protein kinase Lyn (LYN, Homo sapiens, UniProt P07948): remaining activity read 91.2%.
For Mitogen-activated protein kinase kinase kinase kinase 2 (MAP4K2, Homo sapiens, UniProt Q12851): remaining activity read 114%.
For Serine/threonine-protein kinase WNK2 (WNK2, Homo sapiens, UniProt Q9Y3S1): remaining activity read 91.6%.
For Mitogen-activated protein kinase 13 (MAPK13, Homo sapiens, UniProt O15264): remaining activity read 103%.
It gave 105% for remaining activity (Casein kinase I isoform alpha (CSNK1A1, Homo sapiens, UniProt P48729)).
Leucine-rich repeat serine/threonine-protein kinase 2 (LRRK2, Homo sapiens, UniProt Q5S007) — remaining activity: 92.2%.
The remaining activity was 119% (Interleukin-1 receptor-associated kinase 4 (IRAK4, Homo sapiens, UniProt Q9NWZ3)).
It gave 95.8% for remaining activity (Casein kinase II subunit alpha (CSNK2A1, Homo sapiens, UniProt P68400)).
The remaining activity was 88.1% (MAP kinase-interacting serine/threonine-protein kinase 2 (MKNK2, Homo sapiens, UniProt Q9HBH9)).
The remaining activity was 105% (Ephrin type-A receptor 5 (EPHA5, Homo sapiens, UniProt P54756)).
It gave 101% for remaining activity (Protein kinase C delta type (PRKCD, Homo sapiens, UniProt Q05655)).
It gave 94.5% for remaining activity (Cyclin-dependent kinase 9, with cyclin T1 (CDK9, Homo sapiens, UniProt P50750)).
Serine/threonine-protein kinase Nek4 (NEK4, Homo sapiens, UniProt P51957) — remaining activity: 86.9%.
For Tyrosine-protein kinase BTK (BTK, Homo sapiens, UniProt Q06187): remaining activity read 90.6%.
It gave 103% for remaining activity (RAC-gamma serine/threonine-protein kinase (AKT3, Homo sapiens, UniProt Q9Y243)).
The remaining activity was 99.3% (cGMP-dependent protein kinase 1 (PRKG1, Homo sapiens, UniProt Q13976)).
Protein kinase C iota type (PRKCI, Homo sapiens, UniProt P41743) — remaining activity: 101%.
For Serine/threonine-protein kinase PLK2 (PLK2, Homo sapiens, UniProt Q9NYY3): remaining activity read 109%.

Sample 3 — tested at: 1 µM
SMILES: C=CC(=O)N1CCC([C@@H]2CCNc3c(C(N)=O)c(-c4ccc(Oc5ccccc5)cc4)nn32)CC1
MAP kinase-interacting serine/threonine-protein kinase 1 (MKNK1, Homo sapiens, UniProt Q9BUB5); enzyme activity, inhibitor — inhibition: 1%.
It gave 5% for inhibition (Serine/threonine-protein kinase Nek6 (NEK6, Homo sapiens, UniProt Q9HC98); enzyme activity, inhibitor).
For Mitogen-activated protein kinase kinase kinase 19 (MAP3K19, Homo sapiens, UniProt Q56UN5); enzyme activity, inhibitor: inhibition read 15%.
The inhibition was 4% (Transient receptor potential cation channel subfamily M member 6 (TRPM6, Homo sapiens, UniProt Q9BX84); inhibitor).
For Mitogen-activated protein kinase kinase kinase 13 (MAP3K13, Homo sapiens, UniProt O43283); enzyme activity, inhibitor: inhibition read 14%.
The inhibition was 34% (Tyrosine-protein kinase ABL1, non-phosphorylated (ABL1, Homo sapiens, UniProt P00519, F317I); enzyme activity, inhibitor).
For Mitogen-activated protein kinase kinase kinase kinase 2 (MAP4K2, Homo sapiens, UniProt Q12851); enzyme activity, inhibitor: inhibition read 5%.
It gave 7% for inhibition (Hepatocyte growth factor receptor (MET, Homo sapiens, UniProt P08581, Y1235D); cell-free assay).
The inhibition was 21% (Membrane-associated tyrosine- and threonine-specific cdc2-inhibitory kinase (PKMYT1, Homo sapiens, UniProt Q99640); enzyme activity, inhibitor).
The inhibition was 35% (Serine/threonine-protein kinase N1 (PKN1, Homo sapiens, UniProt Q16512); enzyme activity, inhibitor).
Tyrosine-protein kinase Lyn (LYN, Homo sapiens, UniProt P07948); enzyme activity, inhibitor — inhibition: 53%.
The inhibition was 0% (Ephrin type-A receptor 4 (EPHA4, Homo sapiens, UniProt P54764); cell-free assay).
It gave 3% for inhibition (Receptor-type tyrosine-protein kinase FLT3 (FLT3, Homo sapiens, UniProt P36888, F691L/ITD); enzyme activity, inhibitor).
It gave 12% for inhibition (Dual specificity protein kinase CLK4 (CLK4, Homo sapiens, UniProt Q9HAZ1); enzyme activity, inhibitor).

Sample 4 — tested at: 1 µM
Compound: Cc1nc(C2CCN(C(=O)c3ccc(OC(F)(F)F)cc3N)CC2)c2ncc(N3CCN(C)CC3)cc2n1
The remaining binding was 100% (Casein kinase I isoform alpha-like (CSNK1A1L, Homo sapiens, UniProt Q8N752); cell-free assay, competition with immobilised ligand).
The remaining binding was 93% (Bone morphogenetic protein receptor type-1B (BMPR1B, Homo sapiens, UniProt O00238); cell-free assay, competition with immobilised ligand).
Cyclin-dependent kinase 17 (CDK17, Homo sapiens, UniProt Q00537); cell-free assay, competition with immobilised ligand — remaining binding: 88%.
The remaining binding was 92% (Phosphatidylinositol 4,5-bisphosphate 3-kinase catalytic subunit alpha isoform (PIK3CA, Homo sapiens, UniProt P42336, E542K); cell-free assay, competition with immobilised ligand).
Cyclin-dependent kinase 19 (CDK19, Homo sapiens, UniProt Q9BWU1); competition binding — remaining binding: 86%.
It gave 91% for remaining binding (Epidermal growth factor receptor (EGFR, Homo sapiens, UniProt P00533, del747-750/T751S); cell-free assay, competition with immobilised ligand).
It gave 100% for remaining binding (AP2-associated protein kinase 1 (AAK1, Homo sapiens, UniProt Q2M2I8); binding).
For Hepatocyte growth factor receptor (MET, Homo sapiens, UniProt P08581, M1250T); cell-free assay, competition with immobilised ligand: remaining binding read 97%.
The remaining binding was 95% (LIM domain kinase 2 (LIMK2, Homo sapiens, UniProt P53671); cell-free assay, competition with immobilised ligand).
It gave 100% for remaining binding (Epidermal growth factor receptor (EGFR, Homo sapiens, UniProt P00533, T790M); cell-free assay, competition with immobilised ligand).
Mitogen-activated protein kinase kinase kinase kinase 2 (MAP4K2, Homo sapiens, UniProt Q12851); cell-free assay, competition with immobilised ligand — remaining binding: 80%.
Tyrosine-protein kinase ABL1, non-phosphorylated (ABL1, Homo sapiens, UniProt P00519, F317L); cell-free assay, competition with immobilised ligand — remaining binding: 96%.
The remaining binding was 40% (Serine/threonine-protein kinase SBK1 (SBK1, Homo sapiens, UniProt Q52WX2); cell-free assay, competition with immobilised ligand).
The remaining binding was 85% (Casein kinase II subunit alpha' (CSNK2A2, Homo sapiens, UniProt P19784); cell-free assay, competition with immobilised ligand).
Serine/threonine-protein kinase 16 (STK16, Homo sapiens, UniProt O75716); cell-free assay, competition with immobilised ligand — remaining binding: 100%.
For Serine/threonine-protein kinase Nek5 (NEK5, Homo sapiens, UniProt Q6P3R8); cell-free assay, competition with immobilised ligand: remaining binding read 100%.
It gave 86% for remaining binding (Receptor-type tyrosine-protein kinase FLT3 (FLT3, Homo sapiens, UniProt P36888, D835V/ITD); cell-free assay, competition with immobilised ligand).
For Serine/threonine-protein kinase 36 (STK36, Homo sapiens, UniProt Q9NRP7); cell-free assay, competition with immobilised ligand: remaining binding read 100%.
For Ribosomal protein S6 kinase alpha-2, N-terminal kinase domain (RPS6KA2, Homo sapiens, UniProt Q15349); cell-free assay, competition with immobilised ligand: remaining binding read 100%.
The remaining binding was 100% (Aurora kinase C (AURKC, Homo sapiens, UniProt Q9UQB9); cell-free assay, competition with immobilised ligand).
Mitogen-activated protein kinase kinase kinase 6 (MAP3K6, Homo sapiens, UniProt O95382); cell-free assay, competition with immobilised ligand — remaining binding: 100%.
Bone morphogenetic protein receptor type-2 (BMPR2, Homo sapiens, UniProt Q13873); cell-free assay, competition with immobilised ligand — remaining binding: 100%.
It gave 100% for remaining binding (Non-receptor tyrosine-protein kinase TYK2, JH1 (TYK2, Homo sapiens, UniProt P29597); cell-free assay, competition with immobilised ligand).
For Casein kinase I isoform delta (CSNK1D, Homo sapiens, UniProt P48730); cell-free assay, competition with immobilised ligand: remaining binding read 83%.
It gave 79% for remaining binding (SRSF protein kinase 1 (SRPK1, Homo sapiens, UniProt Q96SB4); cell-free assay, competition with immobilised ligand).

For quick reference, copied from above (sample 3):
MAP kinase-interacting serine/threonine-protein kinase 1 (MKNK1, Homo sapiens, UniProt Q9BUB5); enzyme activity, inhibitor — inhibition: 1%.
It gave 5% for inhibition (Serine/threonine-protein kinase Nek6 (NEK6, Homo sapiens, UniProt Q9HC98); enzyme activity, inhibitor).
For Mitogen-activated protein kinase kinase kinase 19 (MAP3K19, Homo sapiens, UniProt Q56UN5); enzyme activity, inhibitor: inhibition read 15%.
The inhibition was 4% (Transient receptor potential cation channel subfamily M member 6 (TRPM6, Homo sapiens, UniProt Q9BX84); inhibitor).
For Mitogen-activated protein kinase kinase kinase 13 (MAP3K13, Homo sapiens, UniProt O43283); enzyme activity, inhibitor: inhibition read 14%.
The inhibition was 34% (Tyrosine-protein kinase ABL1, non-phosphorylated (ABL1, Homo sapiens, UniProt P00519, F317I); enzyme activity, inhibitor).
For Mitogen-activated protein kinase kinase kinase kinase 2 (MAP4K2, Homo sapiens, UniProt Q12851); enzyme activity, inhibitor: inhibition read 5%.
It gave 7% for inhibition (Hepatocyte growth factor receptor (MET, Homo sapiens, UniProt P08581, Y1235D); cell-free assay).
The inhibition was 21% (Membrane-associated tyrosine- and threonine-specific cdc2-inhibitory kinase (PKMYT1, Homo sapiens, UniProt Q99640); enzyme activity, inhibitor).
The inhibition was 35% (Serine/threonine-protein kinase N1 (PKN1, Homo sapiens, UniProt Q16512); enzyme activity, inhibitor).
Tyrosine-protein kinase Lyn (LYN, Homo sapiens, UniProt P07948); enzyme activity, inhibitor — inhibition: 53%.
The inhibition was 0% (Ephrin type-A receptor 4 (EPHA4, Homo sapiens, UniProt P54764); cell-free assay).
It gave 3% for inhibition (Receptor-type tyrosine-protein kinase FLT3 (FLT3, Homo sapiens, UniProt P36888, F691L/ITD); enzyme activity, inhibitor).
